Measurements pooled from the literature.
Numbers after ± are the reported error.
Technique: steady-state kinetics
B1: protein (Cecembia lonarensis, UniProt K1KZY4); chain QVQYNPEKPARPEDHKPFFYKYNTRQLYEKFSDDLMQRAANDRKEIEKINQLGKYKPKKQSLDEHEVPEWFRDAKLGIFLDWGPWSVPGYAPPGSEGDTGGSYPDWYEFLMDFTYKAYHDSIWGEDFRRDDFLPLLHGNNFDSEEYAELAVQAGAKYMVPFARHHAGWTMWESKYTFRNAVEMGPKRDILKELVEASRKRDLKFGFYFSIAEWEYPVITKERVSQWDPYEDMAIFHDGMGLIPRPVPLASYFPARHDRMISGKIPVKDYFGDYMMPLFKEGVDLFDPDLVWYDGGWGTPANSSRVPELSAYFYNQAEGRKEVVINNRAGAYLDDSNLLKFNEVLKSGEHDKLLELYMKAEQIGDYLTPEYSIGNVDINEPWEVCRSISPAFGFNWTDNEENSLSSKELVKMFVGIVANNGNLLLVINPDGSGKLSNVQKDRLLDLGQWLKVNGEGIYSTRPWEIQESEGNFFTKSKNGEFIYIHILDKEKTTIEVPNLNPKNKGAISILGSKEKVLWENSGPITRITIPESFKDERNWPNKYGFTLKVAVK
B2: engA (Bacillus subtilis, UniProt P50743); chain MGKPVVAIVGRPNVGKSTIFNRIAGERISIVEDTPGVTRDRIYSSAEWLNYDFNLIDTGGIDIGDEPFLAQIRQQAEIAMDEADVIIFMVNGREGVTAADEEVAKILYRTKKPVVLAVNKLDNTEMRANIYDFYSLGFGEPYPISGTHGLGLGDLLDAVAEHFKNIPETKYNEEVIQFCLIGRPNVGKSSLVNAMLGEERVIVSNVAGTTRDAVDTSFTYNQQEFVIVDTAGMRKKGKVYETTEKYSVLRALKAIDRSEVVAVVLDGEEGIIEQDKRIAGYAHEAGKAVVIVVNKWDAVDKDESTMKEFEENIRDHFQFLDYAPILFMSALTKKRIHTLMPAIIKASENHSLRVQTNVLNDVIMDAVAMNPTPTHNGSRLKIYYATQVSVKPPSFVVFVNDPELMHFSYERFLENRIRDAFGFEGTPIKIFARARK
B3: ASRGL1 (Homo sapiens, UniProt Q7L266); chain 1 MNPIVVVHGGGAGPISKDRKERVHQGMVRAATVGYGILREGGSAVDAVEGAVVALEDDPEFNAGCGSVLNTNGEVEMDASIMDGKDLSAGAVSAVQCIANPIKLARLVMEKTPHCFLTDQGAAQFAAAMGVPEIPGEKLVTERNKKRLEKEKHEKGAQKTDCQKNLG; chain 2 TVGAVALDCKGNVAYATSTGGIVNKMVGRVGDSPCLGAGGYADNDIGAVSTTGHGESILKVNLARLTLFHIEQGKTVEEAADLSLGYMKSRVKGLGGLIVVSKTGDWVAKWTSTSMPWAAAKDGKLHFGIDPDDTTITDLP
B4: WlbA (Thermus thermophilus, UniProt Q72KX8); chain MTRFALTGLAGYIAPRHLKAIKEVGGVLVASLDPATNVGLVDSFFPEAEFFTEPEAFEAYLEDLRDRGEGVDYLSIASPNHLHYPQIRMALRLGANALSEKPLVLWPEEIARLKELEARTGRRVYTVLQLRVHPSLLALKERLGQEKGAKDVVLTYVTGRGKWYGKSWKVDEAKSGGLATNIGIHFFDLLAWLFGRALHVEVHARTPTVNAGYLELEGARVRWFLSIDPSFVPEPLRRQGKRTYRSIAVDGEEVEFSEGFTDLHTEVYRKTLAGEGFGLDEAAEAIRVAALLRTLPLSQPSPENRHPFLG
B5: enzyme (Brachypodium distachyon, UniProt I1HY48); chain MGSIASEERTVTGWAARDADGHLSPYTYTLRKTGPEDVLVKVLYCGICHTDIHQAKNHLGASKYPMVPGHEVVGEVVEVGGEVSKYSAGDVVGVGVIVGCCRECRPCKASVEQYCNKRIWSYNDVYTDGRPTQGGFSSAMVVDQKFVVRIPAGLAPEQAAPLLCAGVTVYSPLKHFGLMSPGLRGGILGLGGVGHMGVKVAKSMGHHVTVISSSGKKRAEAMDDLGADAYLVSSDADQMAAAADSLDYVIDTVPVKHPLEPYLSLLKMDGKLVLMGVIGEPLSFVSPMVMLGRKSITGSFIGSMEETEEVLKFCVEKGLTSQIEVVKMDYLNEALERLERNDVRYRFVVDVAGSKIEDAA
B6: protein (Rheum palmatum, UniProt A0A7L9A2S6); chain MKKTELVFLPAPAPGHLVSTVEFSKRLIARDARLTVTILVISSPFSRGAQTNPSPGIRYVTLPQVDVPQHLMKDSIEHTISVYIASHAPHVRDAVAALQTESTVHVAGLFLDMFCTPMIDVANELGLPSYVFFCSSAGFLGLLLHLPVHSQPRFDETGLDVLIPSFQNPVPTRVLPRFGFNELGYKSFMDHAKRFGETKGIIINTYAELEPYALKSLLDAYDTAPVYAVGPVLDLRSQVHMPCDAAERARIMGWLDKQPDSSVVFLCFGSGGSFSEHQIREISKGLSQSGQRFLWSVRKPPTGGLVKPTEYTETELRSVLGDEFWSLLDEGERGVVCGWAPQVEVLGHKSVGAFVSHCGWNSTLESLWFGKPMVTWPLYAEQQMNAFELVKELGIAVELTLDYRLHSSEVVEAREVERAVRRVMDENNPVRYKVKEMAEVCRATLVEGGSSFVCVDRLISGFLGEIN
B7: iodotyrosine deiodinase (Haliscomenobacter hydrossis, UniProt F4KU78); chain MKQKPAFIPYAGAQFEPEEMLSKSAEYYQFMDHRRTVREFSNRAIPLEVIENIVMTASTAPSGAHKQPWTFVVVSDPQIKAKIRQAAEKEEFESYNGRMSNEWLEDLQPFGTDWHKPFLEIAPYLIVVFRKAYDVLPDGTQRKNYYVQESVGIACGFLLAAIHQAGLVALTHTPSPMNFLQKILQRPENERPFLLVPVGYPAEGAMVPDLQRKDKAAVMVVY
B8: Rtr1 residues 1-178 (Saccharomyces cerevisiae, UniProt P40084); chain MATIEDIKETALIPFQKHRQLSMHEAEVITLEIIGLLCDSECKDEKTLKYLGRFLTPDMYQDLVDERNLNKRCGYPLCGKSPERIRDPFSMNDTTKKFLLENNPYAYLSHYCSKFHFRCSQFYQVQLSDEALFARTGVHLFEDPEQDKHDIDFKVTLFEELLREKASEEDIKSLISGL
B9: enzyme (Thermobifida fusca, UniProt Q47RA9); chain MIMIMASKSSPHDLPDVSGLSIAVLGGTGDQGRGLARRFAMAGHEVILGSRSAERAQAVAAELGEGLPVRGMDNAGAAEAGDVVIVAVPWDGHRALLESLKDVLAGKIVVDCVNPLGFDKRGAYALPVEEGSAAEQAAAILPDSRVVAAFHHVSAVLLLDPEVEKVDLDVLVLGDDREATDVVRALAARIPGVRGVYGGRLRNAHQVEAFTANLISINRRYKAHAGIRITDI
B10: Nudt8 (Mus musculus, UniProt Q9CR24); chain MLPDGLSAEDEQRCRQLLARTTARLRSRPAAAAVLVPLCLVRGVPALLYTLRSSRLVGRHKGEVSFPGGKCDPDDQDVIHTALRETQEELGLEVPKEHVWGVLQPVYDREKATIVPVLANVGPLDLQSLRPNLEEVDEVFEMSLAHLLQTQNQGYTHFCQGGHFSYTLPVFLHGPHRVWGLTAVITELTLKLLAPGFYQPSLAVPELPRG
B11: YdjH (Escherichia coli, UniProt P77493); chain MDNLDVICIGAAIVDIPLQPVSKNIFDVDSYPLERIAMTTGGDAINEATIISRLGHRTALMSRIGKDAAGQFILDHCRKENIDIQSLKQDVSIDTSINVGLVTEDGERTFVTNRNGSLWKLNIDDVDFARFSQAKLLSLASIFNSPLLDGKALTEIFTQAKARQMIICADMIKPRLNETLDDICEALSYVDYLFPNFAEAKLLTGKETLDEIADCFLACGVKTVVIKTGKDGCFIKRGDMTMKVPAVAGITAIDTIGAGDNFASGFIAALLEGKNLRECARFANATAAISVLSVGATTGVKNRKLVEQLLEEYEG
B12: UCK2 H117Y (Homo sapiens, UniProt Q9BZX2); chain MAGDSEQTLQNHQQPNGGEPFLIGVSGGTASGKSSVCAKIVQLLGQNEVDYRQKQVVILSQDSFYRVLTSEQKAKALKGQFNFDHPDAFDNELILKTLKEITEGKTVQIPVYDFVSYSRKEETVTVYPADVVLFEGILAFYSQEVRDLFQMKLFVDTDADTRLSRRVLRDISERGRDLEQILSQYITFVKPAFEEFCLPTKKYADVIIPRGADNLVAINLIVQHIQDILNGGPSKRQTNGCLNGYTPSRKRQASESSSRPH
UniProt P07914, sequence (whole entry, looked up): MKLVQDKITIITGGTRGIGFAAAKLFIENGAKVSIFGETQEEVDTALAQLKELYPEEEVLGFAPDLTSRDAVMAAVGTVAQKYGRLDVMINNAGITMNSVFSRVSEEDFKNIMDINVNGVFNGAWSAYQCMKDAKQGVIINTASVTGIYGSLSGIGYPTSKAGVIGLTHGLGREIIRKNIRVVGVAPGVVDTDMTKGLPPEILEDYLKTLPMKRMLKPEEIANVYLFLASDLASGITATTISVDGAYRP
UniProt Q9K499, sequence (whole entry, looked up): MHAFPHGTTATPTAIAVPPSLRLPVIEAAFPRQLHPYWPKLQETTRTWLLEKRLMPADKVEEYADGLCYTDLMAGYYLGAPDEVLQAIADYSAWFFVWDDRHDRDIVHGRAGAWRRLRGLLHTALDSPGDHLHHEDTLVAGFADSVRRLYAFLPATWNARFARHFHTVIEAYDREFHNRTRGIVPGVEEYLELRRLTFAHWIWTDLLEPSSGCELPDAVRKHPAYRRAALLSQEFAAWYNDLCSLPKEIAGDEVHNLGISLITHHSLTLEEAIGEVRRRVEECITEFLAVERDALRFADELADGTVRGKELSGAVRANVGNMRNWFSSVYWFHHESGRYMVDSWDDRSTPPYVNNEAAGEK
UniProt P14780, sequence (whole entry, looked up): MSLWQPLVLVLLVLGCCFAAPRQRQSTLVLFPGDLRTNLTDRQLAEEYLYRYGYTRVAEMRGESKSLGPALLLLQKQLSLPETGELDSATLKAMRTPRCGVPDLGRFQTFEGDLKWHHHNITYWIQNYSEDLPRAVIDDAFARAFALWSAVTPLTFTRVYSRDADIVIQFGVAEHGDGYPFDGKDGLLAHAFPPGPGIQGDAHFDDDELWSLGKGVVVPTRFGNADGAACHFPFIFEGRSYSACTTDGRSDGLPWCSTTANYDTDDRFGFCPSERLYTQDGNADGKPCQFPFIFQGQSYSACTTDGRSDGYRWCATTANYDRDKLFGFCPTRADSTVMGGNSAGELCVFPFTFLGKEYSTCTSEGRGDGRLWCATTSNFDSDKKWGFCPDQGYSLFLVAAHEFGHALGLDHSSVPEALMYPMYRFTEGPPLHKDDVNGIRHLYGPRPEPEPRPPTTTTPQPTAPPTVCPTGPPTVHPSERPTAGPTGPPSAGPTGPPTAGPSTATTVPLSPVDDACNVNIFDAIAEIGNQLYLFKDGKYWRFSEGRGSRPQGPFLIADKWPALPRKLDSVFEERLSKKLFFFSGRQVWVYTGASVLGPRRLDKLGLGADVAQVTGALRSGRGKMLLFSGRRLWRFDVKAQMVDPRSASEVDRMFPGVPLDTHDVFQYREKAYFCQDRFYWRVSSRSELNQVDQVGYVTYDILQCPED
UniProt Q8C0L6, sequence (whole entry, looked up): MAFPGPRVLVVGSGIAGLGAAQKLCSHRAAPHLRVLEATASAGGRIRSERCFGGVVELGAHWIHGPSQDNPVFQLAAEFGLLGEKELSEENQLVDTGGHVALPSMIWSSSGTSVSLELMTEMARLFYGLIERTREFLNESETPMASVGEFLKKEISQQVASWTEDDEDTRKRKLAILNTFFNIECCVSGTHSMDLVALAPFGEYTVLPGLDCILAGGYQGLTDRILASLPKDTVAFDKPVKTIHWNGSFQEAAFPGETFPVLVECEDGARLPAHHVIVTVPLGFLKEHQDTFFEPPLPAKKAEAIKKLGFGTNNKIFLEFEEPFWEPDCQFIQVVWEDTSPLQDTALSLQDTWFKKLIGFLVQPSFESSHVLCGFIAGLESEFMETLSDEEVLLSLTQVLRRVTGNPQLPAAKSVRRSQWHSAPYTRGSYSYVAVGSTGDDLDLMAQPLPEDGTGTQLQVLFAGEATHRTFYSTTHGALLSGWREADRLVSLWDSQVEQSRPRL

Molecule | substrate | setting | kcat/Km
cyc1 (Streptomyces coelicolor, UniProt Q9K499) | CC(C)=CCC/C(C)=C/CC/C(C)=C/CO[P@@](=O)(O)OP(=O)(O)O | pH 6.5, 30 °C, together with: MgCl2 10 mM | 260000 ± 10000 M⁻¹ s⁻¹
B1 (protein) | O=[N+]([O-])c1ccc(O[C@@H]2OC[C@H](O)[C@@H](O)[C@@H]2O)cc1 | pH 5.5, 35 °C, substrate inhibition | 232 ± 24 M⁻¹ s⁻¹
BaiA1 (Clostridium scindens, UniProt P07914) | C[C@H](CCC(=O)SCCNC(=O)CCNC(=O)[C@H](O)C(C)(C)COP(=O)(O)OP(=O)(O)OC[C@H]1O[C@@H](n2cnc3c(N)ncnc32)[C@H](O)[C@@H]1OP(=O)(O)O)[C@H]1CC[C@H]2[C@@H]3[C@H](O)C[C@@H]4C[C@H](O)CC[C@]4(C)[C@H]3CC[C@]12C | pH 8.7, 37 °C, together with: NAD+ | 15400 M⁻¹ s⁻¹
B2 (engA) | Nc1nc2c(ncn2[C@@H]2O[C@H](COP(=O)(O)OP(=O)(O)OP(=O)(O)O)[C@@H](O)[C@H]2O)c(=O)[nH]1 | pH 7.5, 37 °C, KCl 200 mM, free enzyme, apparent, together with: GTP 0-1 mM | 114 M⁻¹ s⁻¹
B3 (ASRGL1) | COC(=O)C[C@H](N)C(=O)O | pH 7.4, 37 °C, NaCl 100 mM | 21000 ± 1000 M⁻¹ s⁻¹
B4 (WlbA) | O=C(O)CCC(=O)C(=O)O | pH 8.5, 25 °C, together with: enzyme-bound NAD(H) | 100000 M⁻¹ s⁻¹
B5 (enzyme) | NC(=O)C1=CN([C@@H]2O[C@H](COP(=O)(O)OP(=O)(O)OC[C@H]3O[C@@H](n4cnc5c(N)ncnc54)[C@H](OP(=O)(O)O)[C@@H]3O)[C@@H](O)[C@H]2O)C=CC1 | pH 6.25, 23 °C, cofactor varied | 5.3e+06 M⁻¹ s⁻¹
B6 (protein) | COc1cc(-c2oc3cc(O)cc(O)c3c(=O)c2O)ccc1O | pH 7.5, 35 °C, apparent, together with: UDP-glucose | 7.85 M⁻¹ s⁻¹
B7 (iodotyrosine deiodinase) | COc1cc(C[C@H](N)C(=O)O)cc(I)c1O | pH 7.4, 25 °C | 50000 ± 10000 M⁻¹ s⁻¹
AphC (Rhodococcus jostii, UniProt Q0S9X1) | Oc1ccccc1O | pH 8, 25 °C, apparent, together with: O2 | 1500 M⁻¹ s⁻¹
Paox (Mus musculus, UniProt Q8C0L6) | CC(=O)NCCCNCCCCNCCCN | pH 10, 30 °C | 230000 ± 78000 M⁻¹ s⁻¹
HCT (Coleus scutellarioides, UniProt E8ZAP2) | O=C(O)C1=C[C@@H](O)[C@@H](O)[C@H](O)C1 | pH 8, pseudo-first-order, together with: p-coumaroyl CoA | 77500 ± 6290 M⁻¹ s⁻¹
B8 (Rtr1 residues 1-178) | Cc1cc(=O)oc2c(F)c(OP(=O)(O)O)c(F)cc12 | pH 6, NaCl 150 mM, no metal added | 6.67e+06 M⁻¹ s⁻¹
B9 (enzyme) | NC(=O)c1ccc[n+](CCO)c1 | pH 8, 25 °C | 1.2 ± 0.15 M⁻¹ s⁻¹
B10 (Nudt8) | CCCC(=O)SCCNC(=O)CCNC(=O)[C@H](O)C(C)(C)COP(=O)(O)OP(=O)(O)OC[C@H]1O[C@@H](n2cnc3c(N)ncnc32)[C@H](O)[C@@H]1OP(=O)(O)O | pH 8.5, together with: 2 mM Mn2+ | 8000 M⁻¹ s⁻¹
B11 (YdjH) | O=C(O)[C@H](O)[C@@H](O)[C@H](O)[C@H](O)CO | pH 7.4, 30 °C, KCl 100 mM, together with: ATP 2.0 mM, MgCl2 5.0 mM | 1400 ± 100 M⁻¹ s⁻¹
MMP9 (Homo sapiens, UniProt P14780) | CC(=O)N[C@@H](CCC(N)=O)C(=O)N1CCC[C@H]1C(=O)N[C@@H](CCC(N)=O)C(=O)NCC(=O)N[C@@H](CC(C)C)C(=O)N[C@@H](C)C(=O)N[C@@H](CCCCN)C(N)=O |  | 21000 M⁻¹ s⁻¹
B12 (UCK2 H117Y) | Nc1ccn([C@@H]2O[C@H](CO)[C@@H](O)[C@H]2O)c(=O)n1 | pH 7.2, 25 °C, KCl 100 mM, together with: ATP 100–200 µM | 47000 M⁻¹ s⁻¹

For quick reference, copied from above:
Molecule | substrate | setting | kcat/Km
Paox (Mus musculus, UniProt Q8C0L6) | CC(=O)NCCCNCCCCNCCCN | pH 10, 30 °C | 230000 ± 78000 M⁻¹ s⁻¹
HCT (Coleus scutellarioides, UniProt E8ZAP2) | O=C(O)C1=C[C@@H](O)[C@@H](O)[C@H](O)C1 | pH 8, pseudo-first-order, together with: p-coumaroyl CoA | 77500 ± 6290 M⁻¹ s⁻¹
B8 (Rtr1 residues 1-178) | Cc1cc(=O)oc2c(F)c(OP(=O)(O)O)c(F)cc12 | pH 6, NaCl 150 mM, no metal added | 6.67e+06 M⁻¹ s⁻¹
